Experimental data gathered from unrelated publications.
Numbered parts are unrelated; each lists some results of a single study. Several values in a cell are separate wells, animals, samples, runs or records.
Chain of UniProt Q06418 (whole entry, looked up): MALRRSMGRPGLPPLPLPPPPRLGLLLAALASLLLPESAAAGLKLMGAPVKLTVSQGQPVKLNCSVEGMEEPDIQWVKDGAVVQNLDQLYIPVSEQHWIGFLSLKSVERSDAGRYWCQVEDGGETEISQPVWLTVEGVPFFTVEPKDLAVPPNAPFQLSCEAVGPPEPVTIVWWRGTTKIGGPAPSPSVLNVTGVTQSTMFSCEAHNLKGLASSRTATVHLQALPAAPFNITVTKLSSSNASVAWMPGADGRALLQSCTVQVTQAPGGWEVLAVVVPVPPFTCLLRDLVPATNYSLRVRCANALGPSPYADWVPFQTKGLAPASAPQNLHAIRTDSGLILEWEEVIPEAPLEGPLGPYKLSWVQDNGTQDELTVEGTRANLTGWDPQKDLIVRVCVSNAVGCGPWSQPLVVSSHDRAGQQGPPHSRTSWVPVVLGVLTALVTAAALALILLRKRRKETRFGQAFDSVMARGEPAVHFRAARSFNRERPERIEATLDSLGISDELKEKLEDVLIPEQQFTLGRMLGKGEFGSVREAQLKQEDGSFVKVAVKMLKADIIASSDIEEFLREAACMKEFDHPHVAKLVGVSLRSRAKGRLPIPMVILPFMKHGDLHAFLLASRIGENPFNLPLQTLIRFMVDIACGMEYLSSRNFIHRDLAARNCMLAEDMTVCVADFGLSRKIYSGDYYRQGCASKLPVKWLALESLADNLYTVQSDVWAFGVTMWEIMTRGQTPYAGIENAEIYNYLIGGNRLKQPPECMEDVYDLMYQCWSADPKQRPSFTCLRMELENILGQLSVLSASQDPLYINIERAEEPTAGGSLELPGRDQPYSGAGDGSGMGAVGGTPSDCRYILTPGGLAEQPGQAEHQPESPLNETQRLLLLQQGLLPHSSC
Chain of UniProt P11802 (whole entry, looked up): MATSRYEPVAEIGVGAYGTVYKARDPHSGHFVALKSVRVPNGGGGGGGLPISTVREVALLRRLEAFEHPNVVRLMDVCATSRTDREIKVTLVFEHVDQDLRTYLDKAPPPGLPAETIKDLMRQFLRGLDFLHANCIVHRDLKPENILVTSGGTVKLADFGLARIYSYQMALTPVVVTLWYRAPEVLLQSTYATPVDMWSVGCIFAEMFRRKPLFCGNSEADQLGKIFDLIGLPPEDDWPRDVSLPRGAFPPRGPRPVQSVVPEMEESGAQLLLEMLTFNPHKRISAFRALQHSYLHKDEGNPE

Sample 1
Cell line: A-375
Concentration: 100 µM
Time: 18 h
SMILES | viability [%]
O=C(CCCCCCNC(=O)c1cnc(N(c2ccccc2)c2ccccc2)nc1)NO | 57.2
COc1ccc2[nH]c(SCc3ncc(C)c(OC)c3C)nc2c1 | 81
Cc1nc(C)c(C)nc1C | 107
C[C@]12CC[C@@H]3c4ccc(OS(=O)(=O)O)cc4CC[C@H]3[C@@H]1CCC2=O | 106
CC(=O)O[C@]1(C(C)=O)CC[C@H]2[C@@H]3CCC4=CC(=O)CCC4=C3[C@@H](c3ccc(N(C)C)cc3)C[C@@]21C | 87.8
C[Se]CC[C@H](N)C(=O)O | 94.9
CC(C)(C)NCC(O)c1ccc(O)c(CO)c1 (stereo not shown) | 98.8
CO/N=C(\C(=O)N[C@@H]1C(=O)N2C(C(=O)O)=C(CSC(=O)c3ccco3)CS[C@H]12)c1csc(N)n1 | 97.5
CCCCCCNC(=O)n1cc(F)c(=O)[nH]c1=O | 81.3
CC(C)OC(=O)CCC/C=C\C[C@@H]1[C@@H](CC[C@@H](O)CCc2ccccc2)[C@H](O)C[C@@H]1O | 8.41
CCc1cccc2c3c([nH]c12)C(CC)(CC(=O)O)OCC3 (stereo not shown) | 91.2
CCCCOc1ccc(C(=O)CCN2CCCCC2)cc1 | 43.5
CC(=O)O[C@H]1Cc2ccccc2N(C(N)=O)c2ccccc21 | 97.7
COc1cc(Nc2c(C#N)cnc3cc(OCCCN4CCN(C)CC4)c(OC)cc23)c(Cl)cc1Cl | 97.2
CCOc1nc2cccc(C(=O)OCc3oc(=O)oc3C)c2n1Cc1ccc(-c2ccccc2-c2noc(=O)[nH]2)cc1 | 107
CC[C@H](C)[C@H](N)C1=N[C@H](C(=O)N[C@@H](CC(C)C)C(=O)N[C@H](CCC(=O)O)C(=O)N[C@H](C(=O)N[C@H]2CCCCNC(=O)[C@H](CC(N)=O)NC(=O)[C@@H](CC(=O)O)NC(=O)[C@H](Cc3cnc[nH]3)NC(=O)[C@@H](Cc3ccccc3)NC(=O)[C@H]([C@@H](C)CC)NC(=O)[C@@H](CCCN)NC2=O)[C@@H](C)CC)CS1 | 88
CNC[C@H](O)c1cccc(O)c1 | 101

Sample 2
Target: DNA polymerase theta, ATPase domain (POLQ, Homo sapiens, UniProt O75417)
Chain of UniProt O75417 (whole entry, unmodified, looked up): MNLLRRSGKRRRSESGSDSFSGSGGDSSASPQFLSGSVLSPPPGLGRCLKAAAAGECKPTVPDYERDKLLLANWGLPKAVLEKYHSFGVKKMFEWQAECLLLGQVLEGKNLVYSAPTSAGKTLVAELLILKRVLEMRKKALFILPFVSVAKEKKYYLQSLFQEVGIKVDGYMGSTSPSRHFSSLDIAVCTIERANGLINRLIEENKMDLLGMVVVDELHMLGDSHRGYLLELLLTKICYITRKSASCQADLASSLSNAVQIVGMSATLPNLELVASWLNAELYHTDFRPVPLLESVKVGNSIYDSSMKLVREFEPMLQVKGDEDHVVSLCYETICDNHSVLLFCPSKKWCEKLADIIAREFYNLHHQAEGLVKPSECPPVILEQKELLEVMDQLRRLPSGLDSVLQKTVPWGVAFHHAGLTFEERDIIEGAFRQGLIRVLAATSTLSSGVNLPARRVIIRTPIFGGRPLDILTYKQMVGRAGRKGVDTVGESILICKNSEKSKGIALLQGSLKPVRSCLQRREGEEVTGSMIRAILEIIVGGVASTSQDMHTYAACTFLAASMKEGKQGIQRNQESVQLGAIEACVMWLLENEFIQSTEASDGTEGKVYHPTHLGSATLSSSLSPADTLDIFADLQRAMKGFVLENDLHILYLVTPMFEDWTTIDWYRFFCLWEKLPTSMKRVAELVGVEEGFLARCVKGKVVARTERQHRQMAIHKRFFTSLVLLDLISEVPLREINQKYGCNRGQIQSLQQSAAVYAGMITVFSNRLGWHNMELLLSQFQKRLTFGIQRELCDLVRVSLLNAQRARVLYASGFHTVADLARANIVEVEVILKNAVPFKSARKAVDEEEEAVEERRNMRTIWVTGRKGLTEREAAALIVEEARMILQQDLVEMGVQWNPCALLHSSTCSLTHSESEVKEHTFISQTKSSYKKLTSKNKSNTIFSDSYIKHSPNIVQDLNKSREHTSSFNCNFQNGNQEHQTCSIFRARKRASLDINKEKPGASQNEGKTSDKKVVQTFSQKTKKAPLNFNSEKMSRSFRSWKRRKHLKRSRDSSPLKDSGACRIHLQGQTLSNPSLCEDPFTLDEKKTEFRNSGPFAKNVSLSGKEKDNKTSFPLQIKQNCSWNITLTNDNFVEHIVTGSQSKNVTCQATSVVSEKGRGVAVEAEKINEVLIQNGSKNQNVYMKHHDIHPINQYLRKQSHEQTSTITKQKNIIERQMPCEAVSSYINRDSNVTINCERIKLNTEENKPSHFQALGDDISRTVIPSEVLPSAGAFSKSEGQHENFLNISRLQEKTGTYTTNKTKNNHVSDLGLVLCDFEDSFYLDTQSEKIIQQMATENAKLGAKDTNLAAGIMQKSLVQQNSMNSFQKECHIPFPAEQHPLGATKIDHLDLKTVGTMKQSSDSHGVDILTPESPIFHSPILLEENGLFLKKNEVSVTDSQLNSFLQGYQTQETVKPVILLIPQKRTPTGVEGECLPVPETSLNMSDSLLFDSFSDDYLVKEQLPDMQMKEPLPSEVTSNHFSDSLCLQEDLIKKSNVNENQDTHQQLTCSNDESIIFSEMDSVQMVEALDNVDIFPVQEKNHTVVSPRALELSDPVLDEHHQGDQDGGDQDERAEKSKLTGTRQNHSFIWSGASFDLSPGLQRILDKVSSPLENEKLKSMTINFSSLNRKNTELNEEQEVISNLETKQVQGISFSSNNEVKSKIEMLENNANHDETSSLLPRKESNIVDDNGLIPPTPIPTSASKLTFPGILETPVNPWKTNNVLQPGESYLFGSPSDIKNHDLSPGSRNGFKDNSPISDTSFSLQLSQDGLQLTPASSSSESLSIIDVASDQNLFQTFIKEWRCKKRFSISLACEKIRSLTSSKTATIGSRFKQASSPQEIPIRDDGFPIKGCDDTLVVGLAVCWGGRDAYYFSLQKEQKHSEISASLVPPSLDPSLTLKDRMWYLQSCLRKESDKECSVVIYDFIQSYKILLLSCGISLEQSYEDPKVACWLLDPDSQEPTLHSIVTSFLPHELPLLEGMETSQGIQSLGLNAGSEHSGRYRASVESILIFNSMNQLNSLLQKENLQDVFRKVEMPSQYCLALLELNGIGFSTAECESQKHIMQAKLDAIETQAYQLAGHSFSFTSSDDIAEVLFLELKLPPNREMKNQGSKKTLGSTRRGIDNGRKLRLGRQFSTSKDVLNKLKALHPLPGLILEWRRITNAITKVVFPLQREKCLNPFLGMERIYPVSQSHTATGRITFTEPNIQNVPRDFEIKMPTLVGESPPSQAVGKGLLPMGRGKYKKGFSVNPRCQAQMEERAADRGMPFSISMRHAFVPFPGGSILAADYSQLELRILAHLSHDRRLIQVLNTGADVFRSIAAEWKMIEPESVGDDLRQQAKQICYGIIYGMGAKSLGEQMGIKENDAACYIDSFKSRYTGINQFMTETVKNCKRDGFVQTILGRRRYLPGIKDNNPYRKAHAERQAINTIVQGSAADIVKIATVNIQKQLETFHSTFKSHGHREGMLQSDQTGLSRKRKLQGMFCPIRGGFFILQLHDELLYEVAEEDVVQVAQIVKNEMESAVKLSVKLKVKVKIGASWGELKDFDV
Effect on: enzyme activity
Mode: inhibitor
Concentration: 77 µM
Reference: untreated
Compound | remaining activity
C=CCN1CCc2c(cc(O)c(O)c2Cl)C(c2ccccc2)C1 (stereo not shown) | 94.4%
Nc1ccc(CCNc2ncnc3c2ncn3[C@@H]2O[C@H](CO)[C@@H](O)[C@H]2O)cc1 | 102%
CC[C@H]1OC(=O)[C@H](C)[C@@H](O[C@H]2C[C@@](C)(OC)[C@@H](O)[C@H](C)O2)[C@H](C)[C@@H](O[C@@H]2O[C@H](C)C[C@H](N(C)C)[C@H]2O)[C@](C)(O)C[C@@H](C)/C(=N\OCOCCOC)[C@H](C)[C@@H](O)[C@]1(C)O | 101% and 98.7%
CCOC(=O)O[C@]1(C(=O)OCCl)CC[C@H]2[C@@H]3CCC4=CC(=O)C=C[C@]4(C)[C@H]3[C@@H](O)C[C@@]21C | 102%
Cc1cccc(Nc2cc(Cl)nc(SCC(=O)O)n2)c1C | 86.8%
OCCN1CCN(CC/C=C2/c3ccccc3Sc3ccc(C(F)(F)F)cc32)CC1 | 105%
COc1cc(OC)cc(-c2cc3cnc(N)nc3nc2NC(=O)NC(C)(C)C)c1 | 101%
CC(=O)N(CC(C)C(=O)O)c1c(I)cc(I)c(N)c1I (stereo not shown) | 304%
CC(C)(C)NC[C@@H](O)COc1cccc2c1CCCC2=O | 104%
N=C(N)NCCCCN | 101%
CC[C@H](NC(=O)[C@H](C)NC)C(=O)N1C[C@@H](O)C[C@H]1Cc1c(-c2[nH]c3cc(F)ccc3c2C[C@@H]2C[C@H](O)CN2C(=O)[C@H](CC)NC(=O)[C@H](C)NC)[nH]c2cc(F)ccc12 | 79.3%
C[C@@]1(c2cc(-c3cncnc3)c(F)cc2F)CCSC(N)=N1 | 99.6%
N=C(N)NCC1COC2(CCCCC2)O1 (stereo not shown) | 103%
CC(Cc1cccc(C(F)(F)F)c1)NCCOC(=O)c1ccccc1 (stereo not shown) | 104%
CC(=O)c1ccc(N2CCOCC2)cc1O | 104%
CCN(CC)Cc1cc(Nc2ccnc3cc(Cl)ccc23)ccc1O | 103%
CC[C@H]1OC(=O)[C@H](C)[C@@H](O[C@H]2C[C@@](C)(OC)[C@@H](O)[C@H](C)O2)[C@H](C)[C@@H](O[C@@H]2O[C@H](C)C[C@H](NC)[C@H]2O)[C@](C)(O)C[C@@H](C)CN(C)[C@H](C)[C@@H](O)[C@]1(C)O | 101%
Cc1cccc(C)c1NC(=O)C1CCCCN1C (stereo not shown) | 97.7%
NC(=O)C(=O)O | 102%
COC(=O)N1CCN(Cc2cccc(NC(=O)Nc3ccc(C)nc3)c2F)CC1 | 98.6%
NC(=O)N/N=C/c1ccc([N+](=O)[O-])o1 | 80.9% and 106%
CN1CCC(CNc2ccc3ncc(-c4cccc(OC(F)(F)F)c4)n3n2)CC1 | 73.6%
c1cc(-c2cnn3cc(-c4ccc(N5CCNCC5)cc4)cnc23)c2cccnc2c1 | 94.3%

Sample 3
SMILES: C[C@@H]1CN(c2cc(-c3nn(C)c4ccc(OC5(C)CC5)cc34)ncn2)C[C@H](C)O1
Technique: competition with immobilised ligand
Concentration: 1 µM
target | effect on | remaining binding [%]
SYK (Homo sapiens, UniProt P43405) | cell-free assay | 89
EPHB6 (Homo sapiens, UniProt O15197) | cell-free assay | 100
EGFR (Homo sapiens, UniProt P00533, G719C) | cell-free assay | 76
Ribosomal protein S6 kinase alpha-5, C-terminal kinase domain (RPS6KA5, Homo sapiens, UniProt O75582) | cell-free assay | 79
PLK3 (Homo sapiens, UniProt Q9H4B4) | cell-free assay | 84
MAP4K3 (Homo sapiens, UniProt Q8IVH8) | cell-free assay | 100
GRK2 (Homo sapiens, UniProt P25098) | cell-free assay | 68
CDK4 (Homo sapiens, UniProt P11802) | cell-free assay | 91
BMPR1A (Homo sapiens, UniProt P36894) | binding | 85
GSK3A (Homo sapiens, UniProt P49840) | cell-free assay | 86
STK35 (Homo sapiens, UniProt Q8TDR2) | cell-free assay | 100
CHEK1 (Homo sapiens, UniProt O14757) | cell-free assay | 57
TYRO3 (Homo sapiens, UniProt Q06418) | cell-free assay | 93
ALK (Homo sapiens, UniProt Q9UM73) | cell-free assay | 64
MATK (Homo sapiens, UniProt P42679) | cell-free assay | 80
MAP3K7 (Homo sapiens, UniProt O43318) | cell-free assay | 89
BRAF (Homo sapiens, UniProt P15056) | cell-free assay | 68
PI4KB (Homo sapiens, UniProt Q9UBF8) | cell-free assay | 89
LATS1 (Homo sapiens, UniProt O95835) | cell-free assay | 100

Sample 4
Target: Non-receptor tyrosine-protein kinase TYK2 (TYK2, Homo sapiens, UniProt P29597)
Chain of UniProt P29597 (whole entry, looked up): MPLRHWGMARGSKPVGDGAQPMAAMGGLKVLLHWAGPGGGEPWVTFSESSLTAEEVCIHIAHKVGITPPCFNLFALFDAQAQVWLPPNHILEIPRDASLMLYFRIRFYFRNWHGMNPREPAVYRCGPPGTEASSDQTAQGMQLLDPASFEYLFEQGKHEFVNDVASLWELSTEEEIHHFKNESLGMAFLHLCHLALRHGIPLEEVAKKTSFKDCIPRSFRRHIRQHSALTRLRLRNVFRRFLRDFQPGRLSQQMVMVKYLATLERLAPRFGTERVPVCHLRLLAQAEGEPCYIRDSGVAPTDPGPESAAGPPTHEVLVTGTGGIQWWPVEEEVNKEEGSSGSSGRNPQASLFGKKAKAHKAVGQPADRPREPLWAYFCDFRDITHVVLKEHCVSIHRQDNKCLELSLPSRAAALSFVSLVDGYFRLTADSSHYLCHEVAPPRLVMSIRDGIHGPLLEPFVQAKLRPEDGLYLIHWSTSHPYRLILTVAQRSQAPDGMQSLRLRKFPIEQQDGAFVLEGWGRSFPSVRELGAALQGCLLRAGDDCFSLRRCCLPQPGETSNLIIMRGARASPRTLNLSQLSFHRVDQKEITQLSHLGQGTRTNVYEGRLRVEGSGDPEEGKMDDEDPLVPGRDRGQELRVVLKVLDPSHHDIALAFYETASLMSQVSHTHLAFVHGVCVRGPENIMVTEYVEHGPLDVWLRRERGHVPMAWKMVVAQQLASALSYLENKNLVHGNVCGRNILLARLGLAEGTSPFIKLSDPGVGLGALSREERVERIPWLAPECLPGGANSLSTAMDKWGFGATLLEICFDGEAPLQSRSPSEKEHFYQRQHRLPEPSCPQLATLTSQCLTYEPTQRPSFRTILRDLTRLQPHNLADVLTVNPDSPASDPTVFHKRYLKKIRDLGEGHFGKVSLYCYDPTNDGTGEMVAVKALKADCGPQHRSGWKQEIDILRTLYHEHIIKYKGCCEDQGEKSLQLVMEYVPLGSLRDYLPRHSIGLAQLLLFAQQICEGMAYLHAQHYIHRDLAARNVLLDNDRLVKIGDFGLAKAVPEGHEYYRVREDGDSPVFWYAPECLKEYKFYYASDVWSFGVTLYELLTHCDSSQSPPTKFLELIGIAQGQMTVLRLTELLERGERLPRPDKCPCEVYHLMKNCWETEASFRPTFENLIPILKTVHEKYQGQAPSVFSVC
Effect on: enzyme activity
Mode: inhibitor
Concentration: 0.5 µM
Reference: control
SMILES | remaining activity
CS(=O)(=O)CCNCc1ccc(-c2ccc3ncnc(Nc4ccc(OCc5cccc(F)c5)c(Cl)c4)c3c2)o1 | 95.5%
CCOc1cc2ncnc(Nc3cccc(Br)c3)c2cc1OCC | 107%
COc1cc2ncc(-c3ccccc3)nc2cc1OC | 93.9%
O=c1cc(N2CCOCC2)oc2c1ccc1ccccc12 | 111%
CCC(=O)Nc1ccc2ncnc(Nc3cccc(Br)c3)c2c1 | 90.2%
CC(C)[C@H](CO)Nc1nc(Nc2cccc(Cl)c2)c2ncn(C(C)C)c2n1 | 95.2%
Cn1cnc2cc3c(Nc4cccc(Br)c4)ncnc3cc21 | 112%
Cc1nc(Nc2ncc(C(=O)Nc3c(C)cccc3Cl)s2)cc(N2CCN(CCO)CC2)n1 | 95.6%
CC(=O)O/N=C1/C(c2c(O)[nH]c3cc(Br)ccc23)=Nc2ccccc21 | 81.6%
O=C1NC(=O)/C(=C/c2ccc3nccnc3c2)S1 | 85.2%
COc1ccc(-c2cnc3c(-c4ccsc4)cnn3c2)cc1 | 86.1%

Repeated from above (sample 1):
SMILES | viability [%]
C[Se]CC[C@H](N)C(=O)O | 94.9
CC(C)(C)NCC(O)c1ccc(O)c(CO)c1 (stereo not shown) | 98.8
CO/N=C(\C(=O)N[C@@H]1C(=O)N2C(C(=O)O)=C(CSC(=O)c3ccco3)CS[C@H]12)c1csc(N)n1 | 97.5
CCCCCCNC(=O)n1cc(F)c(=O)[nH]c1=O | 81.3
CC(C)OC(=O)CCC/C=C\C[C@@H]1[C@@H](CC[C@@H](O)CCc2ccccc2)[C@H](O)C[C@@H]1O | 8.41
CCc1cccc2c3c([nH]c12)C(CC)(CC(=O)O)OCC3 (stereo not shown) | 91.2
CCCCOc1ccc(C(=O)CCN2CCCCC2)cc1 | 43.5
CC(=O)O[C@H]1Cc2ccccc2N(C(N)=O)c2ccccc21 | 97.7
COc1cc(Nc2c(C#N)cnc3cc(OCCCN4CCN(C)CC4)c(OC)cc23)c(Cl)cc1Cl | 97.2
CCOc1nc2cccc(C(=O)OCc3oc(=O)oc3C)c2n1Cc1ccc(-c2ccccc2-c2noc(=O)[nH]2)cc1 | 107
